Values quoted from earlier work, collected from citations in different studies.
Each line is one published result; not all experiments were run side by side. ± gives the spread as reported. Ends that are not written are not given here.

Substance | test | test system | setting | how to read | quantity | value
CCCNC(=N)NCCC[C@H](N)C(=O)O | eNOS-dependent vasodilation | bovine ciliary artery | with: bradykinin |  | IC50 | ~10 µM
COc1cc(OC)cc(N(CCNC(C)C)c2ccc3ncc(-c4cnn(C)c4)nc3c2)c1 |  | human metastatic urothelial carcinoma | dose not given, phase II FGFR3 mutation or FGFR2/3 fusion |  | objective response rate | 40%
CN1CCC(c2ccccc2CC(C)(C)Nc2nc(N3CCOCC3)nc(-n3c(C(F)F)nc4ccccc43)n2)CC1 | basophil activation, inhibitor | healthy human volunteers, peripheral blood |  |  | EC50 | 0.001 µM
Neurokinin A | bladder contraction, agonist | human bladder strips |  |  | EC50 | ~0.04 µM
Cc1c(O)c(C23CC4CC(CC(C4)C2)C3)cc2c1CC[C@@H]1[C@@H]2CC[C@]2(C)C(=O)CC[C@@H]12 | lipid peroxidation, TBARS | rat brain homogenate | with: 50 µM ferric ions |  | IC50 | 0.708 µM
CN1CCN(c2ccc(C(=O)Nc3n[nH]c4ccc(Cc5cc(F)cc(F)c5)cc34)c(NC3CCOCC3)c2)CC1 |  | ROS1 NSCLC or NTRK tumour patients | dose not given |  | intracranial response rate | 55%
C[C@]1(c2nc3c(C(N)=O)cccc3[nH]2)CCCN1 |  | human, TNBC | 50 mg twice daily, then AC, with: paclitaxel, carboplatin AUC 6 |  | pathological complete response rate | 53%
semaglutide |  | type 2 diabetes patients | 1.0 mg, 40 weeks | baseline: baseline | body weight change | -5.7 kg
CN1CCN(CCOc2cc(OC3CCOCC3)c3c(Nc4c(Cl)ccc5c4OCO5)ncnc3c2)CC1 |  | human platinum-sensitive ovarian cancer | dose not given, with: paclitaxel and carboplatin |  | median progression-free survival | 8.3 months
COc1cccc2c1C(=O)c1c(O)c3c(c(O)c1C2=O)C[C@@](O)(C(=O)CO)C[C@@H]3O[C@H]1C[C@H](N)[C@H](O)[C@H](C)O1 |  | mouse brain metastasis model | dose not given, highest drug concentration subset |  | brain metastases with cytotoxicity | 10%
CC[C@H](C)[C@@H]1NC(=O)[C@H](CCCNC(=N)N)NC(=O)[C@H](CC(=O)O)NC(=O)[C@H](CC(C)C)NC(=O)[C@H](CCCCN)NC(=O)[C@H](CC(C)C)NC(=O)CNC(=O)[C@H](Cc2ccccc2)NC(=O)[C@@H](NC(=O)CNC(=O)[C@H](CCCCN)NC(=O)[C@H](CO)NC(=O)[C@H](CC(C)C)NC(=O)CNC(=O)[C@H](CCCCN)NC(=O)[C@H](CCCCN)NC(=O)[C@H](CC(N)=O)NC(=O)[C@H](C)NC(=O)CNC(=O)[C@H](CCCCN)NC(=O)[C@H](Cc2ccc(O)cc2)NC(=O)[C@H](CCCCN)NC(=O)[C@H](CCCNC(=N)N)NC(=O)[C@H](C)NC(=O)[C@H](CC(N)=O)NC(=O)[C@@H]2CCCN2C(=O)[C@H](Cc2c[nH]cn2)NC(=O)[C@H](CCC(=O)O)NC(=O)[C@H](CCC(N)=O)NC(=O)CNC(=O)[C@@H]2CCCN2)CSSC[C@@H](C(=O)O)NC(=O)CNC(=O)[C@H](CC(C)C)NC(=O)CNC(=O)[C@H](CO)NC(=O)[C@H](CCSC)NC(=O)[C@H](CO)NC(=O)CNC1=O |  | human, achondroplasia | sc, 15 µg/kg daily, 52 weeks, phase III | baseline: placebo | difference in annualized growth velocity | 1.57 cm/year
C[C@]1(C(=O)[O-])CSC(c2ccc(O)cc2O)=N1.[Na+] |  | bile duct-cannulated rats, non iron-overloaded | oral, 300 µmol/kg, 24 h, monosodium salt |  | iron clearing efficiency | 1.1 ± 0.8%
CS(=O)(=O)CCNCc1ccc(-c2ccc3ncnc(Nc4ccc(OCc5cccc(F)c5)c(Cl)c4)c3c2)o1 |  | HER2-positive breast cancer patients | dose not given, with: capecitabine | baseline: trastuzumab and capecitabine | CNS progression rate | no effect
CN(C)c1ccc2nc3ccc(=[N+](C)C)cc-3sc2c1 | PHF core disruption | purified AD brain PHFs |  |  | effective concentration | 0.16 µmol/L
C[C@]12CC[C@@H]3c4cc(C56CC7CC(CC(C7)C5)C6)c(O)cc4CC[C@H]3[C@@H]1CC[C@@H]2O | lipid peroxidation, TBARS | rat brain homogenate | with: 50 µM ferric ions |  | IC50 | 1.39 µM
O=C1NC(=O)[C@@H](c2cn3c4c(cccc24)CCC3)[C@@H]1c1c[nH]c2ccccc12 |  | human, hepatocellular carcinoma, high c-Met | concentration not given |  | time to progression | 2.7 months
O=C1NC(=O)C(c2ccccc2)(c2ccccc2)N1 | protection from seizures | CF-1 mice, 6 Hz corneal stimulation | ip, with: 22 mA |  | ED50 | 9.4 mg/kg
NCCCC[C@H](NC(=O)[C@@H]1CCCN1C(=O)[C@@H]1CSSC[C@H](NC(=O)CNC(=O)CNC(=O)CN)C(=O)N[C@@H](Cc2ccc(O)cc2)C(=O)N[C@@H](Cc2ccccc2)C(=O)N[C@@H](CCC(N)=O)C(=O)N[C@@H](CC(N)=O)C(=O)N1)C(=O)NCC(N)=O | arterial blood pressure rise | rat | dose not given | baseline: lysine and arginine vasopressin | relative dose for pressor effect | 100 fold
semaglutide |  | human adults overweight or obese non-diabetic | 2.4 mg, 2 years |  | placebo-subtracted weight reduction | 13%
bevacizumab |  | human, platinum-resistant recurrent ovarian cancer | dose not given, with: chemotherapy |  | objective response rate | 27.3%
CC(=O)O[C@H]1CC[C@@]2(C)C(=CC[C@@H]3[C@@H]2CC[C@]2(C)C(c4cccnc4)=CC[C@@H]32)C1 |  | human mCRPC, post-chemotherapy | dose not given, with: prednisone | baseline: prednisone alone | overall survival gain | 3.9 months
C[C@@H](NCCCc1cccc(C(F)(F)F)c1)c1cccc2ccccc12 |  | human primary hyperparathyroidism | oral, dose not given, normal renal function |  | time to iPTH nadir | 4 h
NC(=O)N1c2ccccc2C[C@H](O)c2ccccc21 | psychomotor seizure protection | mice | 6 Hz 44 mA 3 s stimulation |  | ED50 | 12.1 mg/kg
CCCc1nn(C)c2c(=O)[nH]c(-c3cc(S(=O)(=O)N4CCN(C)CC4)ccc3OCC)nc12 | ambulatory blood pressure monitoring, refers to: DBP | healthy and hypertensive humans | 100 mg, evening dosing |  | blood pressure reduction | -4.5 mmHg
CC(C)(O)c1cc2nn(CCS(C)(=O)=O)cc2cc1NC(=O)c1cccc(C(F)(F)F)n1 | TNF-alpha release | healthy male human, whole blood | up to 240 mg daily, 10 days, with: LPS 0.1 ng/mL for 6 h |  | inhibition | 50%
C[C@]12CC[C@@H]3c4ccc(O)cc4CC[C@H]3[C@@H]1CCC2=O | lipid peroxidation, TBARS | rat brain homogenate | with: 50 µM ferric ions |  | IC50 | 80.8 µM

Substance | test | test system | setting | how to read | quantity | value
O=C(O)c1cc(O)c(O)c(O)c1 | superoxide scavenging, PMS-NADH system |  |  |  | IC50 | 29 µM
glutathione | hydroxyl radical scavenging |  |  |  | EC50 | 1230 ± 312 µM
CO[C@H]1C[C@@H]2CC[C@@H](C)[C@@](O)(O2)C(=O)C(=O)N2CCCC[C@H]2C(=O)O[C@H]([C@H](C)C[C@@H]2CC[C@@H](OCCO)[C@H](OC)C2)CC(=O)[C@H](C)/C=C(\C)[C@@H](O)[C@@H](OC)C(=O)[C@H](C)C[C@H](C)/C=C/C=C/C=C/1C |  | human, breast cancer | 70 mg weekly |  | response rate | 0%
CC1(C)CCC(CN2CCN(c3ccc(C(=O)NS(=O)(=O)c4ccc(NCC5CCOCC5)c([N+](=O)[O-])c4)c(Oc4cnc5[nH]ccc5c4)c3)CC2)=C(c2ccc(Cl)cc2)C1 |  | relapsed/refractory AML patients | 800 mg initial, monotherapy |  | response rate | 19%
Nc1nc(Cl)nc2c1ncn2[C@H]1C[C@H](O)[C@@H](CO)O1 |  | paediatric AML patients | dose not given, before induction therapy |  | partial remission rate | 32%
CCC1(C)CC(=O)NC1=O (stereo not shown) | protection from seizures | CF-1 mice, 6 Hz corneal stimulation | ip, with: 32 mA |  | ED50 | 167 mg/kg
CNC(=C[N+](=O)[O-])NCCSCc1ccc(CN(C)C)o1 |  | mice, E0771-GFP or 4T1 tumours | oral, drinking water, 8 mg/kg, 21 days |  | anti-tumour antibody response | increased
CO[C@H]1C[C@@H]2CC[C@@H](C)[C@@](O)(O2)C(=O)C(=O)N2CCCC[C@H]2C(=O)O[C@H]([C@H](C)C[C@@H]2CC[C@@H](O)[C@H](OC)C2)CC(=O)[C@H](C)/C=C(\C)[C@@H](O)[C@@H](OC)C(=O)[C@H](C)C[C@H](C)/C=C/C=C/C=C/1C |  | tumour-bearing mice, blood | steady state |  | blood concentration, maximal antiangiogenic effect | 15 ± 1 ng/mL
Nc1ncn([C@@H]2O[C@H](CO)[C@@H](O)[C@H]2O)c(=O)n1 |  | human advanced solid tumour patients | 20 to 25 mg/m^2 daily, 10 days |  | stable disease | 35%
NS(=O)(=O)NCCNc1nonc1C(=NO)Nc1ccc(F)c(Br)c1 |  | melanoma patients | dose not given, with: pembrolizumab | baseline: pembrolizumab alone | overall survival hazard ratio | 1.13
C[C@@]12CC=C3c4ccc(O)cc4CC[C@@H]3[C@H]1CC[C@H]2O | lipid peroxidation, TBARS | rat brain homogenate | with: 50 µM ferric ions |  | IC50 | 3.13 µM
NC(=O)N1c2ccccc2C=Cc2ccccc21 | protection against seizures | male NMRI mouse | MES-induced seizures |  | ED50 | 13.5 mg/kg
Cc1ccc(C(=O)N(CCCN)[C@@H](c2nc3cc(Cl)ccc3c(=O)n2Cc2ccccc2)C(C)C)cc1 |  | human, platinum/taxane refractory ovarian cancer | 18 mg/m2 every 21 days |  | partial response rate | 5%
KCNTATCATQRLANFLVHSSNNFGPILPPTNVGSNTY (Pramlintide; not fully specified (C-terminus, bridges); cysteine pairing not given here; sequence looked up) |  | peptide, obese humans | 360 µg twice daily, 6 months, with lifestyle intervention | baseline: placebo | body weight loss | 5 to 6%
Ac-ELDWDADDIRLQIDNPD-NH2 (N-acetyl, C-amide) | western blot | peptide, Tsk/+ mouse, myocardium | subcutaneous, 1 mg/kg/day, 21 days |  | ICAM-1 protein level | decreased
O=C(CCC/C=C\C[C@@H]1[C@@H](CC[C@@H](O)CCc2ccccc2)[C@H](O)C[C@@H]1O)OCCCCO[N+](=O)[O-] |  | patients with OHT or POAG | topical ocular, 0.024%, 3 months, all post-baseline visits |  | IOP | 17.8 to 18.7 mmHg
C[C@]12CC[C@@H]3c4ccc(O)cc4CC[C@H]3[C@@H]1CC1(CCCC1)C2=O | lipid peroxidation, TBARS | rat brain homogenate | with: 50 µM ferric ions |  | IC50 | 16.1 µM
O=c1c(O)c(-c2ccc(O)c(O)c2)oc2cc(O)ccc12 | superoxide radical scavenging |  | with: xanthine/xanthine oxidase |  | IC50 | 3 to 5 µM
CCCCCCCCCCCCCCCC(=O)N[C@@H](CCC(=O)NCCCC[C@H](NC(=O)[C@H](C)NC(=O)[C@H](C)NC(=O)[C@H](CCC(N)=O)NC(=O)CNC(=O)[C@H](CCC(=O)O)NC(=O)[C@H](CC(C)C)NC(=O)[C@H](Cc1ccc(O)cc1)NC(=O)[C@H](CO)NC(=O)[C@H](CO)NC(=O)[C@@H](NC(=O)[C@H](CC(=O)O)NC(=O)[C@H](CO)NC(=O)[C@@H](NC(=O)[C@H](Cc1ccccc1)NC(=O)[C@@H](NC(=O)CNC(=O)[C@H](CCC(=O)O)NC(=O)[C@H](C)NC(=O)[C@@H](N)Cc1c[nH]cn1)[C@@H](C)O)[C@@H](C)O)C(C)C)C(=O)N[C@@H](CCC(=O)O)C(=O)N[C@@H](Cc1ccccc1)C(=O)N[C@H](C(=O)N[C@@H](C)C(=O)N[C@@H](Cc1c[nH]c2ccccc12)C(=O)N[C@@H](CC(C)C)C(=O)N[C@H](C(=O)N[C@@H](CCCNC(=N)N)C(=O)NCC(=O)N[C@@H](CCCNC(=N)N)C(=O)NCC(=O)O)C(C)C)[C@@H](C)CC)C(=O)O |  | obese or overweight adults, type 2 diabetes, plasma |  |  | concentration for full glycaemic response | ~15 nM
CN(C)CCCC1(c2ccc(F)cc2)OCc2cc(C#N)ccc21 (stereo not shown) | substrate, refers to: DCIT | human liver microsomes |  |  | Km | 174 µM
CC(=O)Oc1ccccc1C(=O)O |  | postmenopausal women | dose not given, long-term regular use |  | breast cancer risk reduction | 21%
insulin | disulfide reduction |  | pH neutral, with: dithiothreitol |  | second-order rate constant | 5 M⁻¹ s⁻¹
Nc1nnc(-c2cccc(Cl)c2Cl)c(N)n1 | protection from seizures | CF-1 mice, 6 Hz corneal stimulation | ip, with: 22 mA |  | ED50 | 4.4 mg/kg
CC(=O)O[C@H]1Cc2ccccc2N(C(N)=O)c2ccccc21 |  | mouse pilocarpine chronic epilepsy | p.o., 150 mg/kg once daily, 6 weeks | baseline: vehicle | epileptiform discharge duration decrease | 92%
C[C@]12CC[C@@H]3c4ccc(O)cc4CC[C@H]3[C@@H]1CC[C@H]2O |  | rat transient MCA occlusion | dose not given, 24 h pretreatment |  | ischemic lesion curve AUC | 3.7 ± 1.3%
Clc1ccc2c(N3CCN(CCCN4CCN(c5ccnc6cc(Cl)ccc56)CC4)CC3)ccnc2c1 |  | mouse malaria model | oral, single dose |  | curative dose | 16 mg/kg

Some of these lines once more:
Substance | test | test system | setting | how to read | quantity | value
CN(C)CCCC1(c2ccc(F)cc2)OCc2cc(C#N)ccc21 (stereo not shown) | substrate, refers to: DCIT | human liver microsomes |  |  | Km | 174 µM
CN1CCN(c2ccc(C(=O)Nc3n[nH]c4ccc(Cc5cc(F)cc(F)c5)cc34)c(NC3CCOCC3)c2)CC1 |  | ROS1 NSCLC or NTRK tumour patients | dose not given |  | intracranial response rate | 55%
O=C1NC(=O)[C@@H](c2cn3c4c(cccc24)CCC3)[C@@H]1c1c[nH]c2ccccc12 |  | human, hepatocellular carcinoma, high c-Met | concentration not given |  | time to progression | 2.7 months
C[C@]1(C(=O)[O-])CSC(c2ccc(O)cc2O)=N1.[Na+] |  | bile duct-cannulated rats, non iron-overloaded | oral, 300 µmol/kg, 24 h, monosodium salt |  | iron clearing efficiency | 1.1 ± 0.8%
